Published values from different studies.
Numbered parts are unrelated; each lists some results of a single study. Substitutions count along the parent as printed.

Block 1 — target: NFE2L3, bZIP domain (human); method: DHFR protein complementation; matrix: yeast; relative to: wild-type JUN-FOS pair; direction: higher = stronger binding
Notes: single substitutions, most at no-binding floor
Starting sequence: JUN, bZIP domain (human); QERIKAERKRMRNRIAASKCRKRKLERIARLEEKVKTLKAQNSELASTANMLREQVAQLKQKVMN; partner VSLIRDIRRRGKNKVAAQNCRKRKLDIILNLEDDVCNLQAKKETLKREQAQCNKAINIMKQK
Substitution	binding fitness [natural log]
N42Q	-1.49
E54N	-1.25
E44N	-1.45
Q55L	-1.38
Q41C	-1.53
E32S	-1.54
V56G	-1.56
E44G	-1.4
V56L	-1.56
T48F	-1.28
M51E	-1.54
L52T	-1.51
S43N	-1.16
K39H	-1.51
N42R	-1.46

Block 2 — method: aptamer microarray, sandwich; molecule type: DNA with 2'F-ANA; matrix: in vitro; concentration: 200 nM; together with: Cy3 exosite-II aptamer, 400 nM; direction: higher = stronger binding; oligonucleotide: GGTTGGTGTGGTTGG
Target: Prothrombin, mature alpha-thrombin (F2, Homo sapiens, UniProt P00734)
Notes: whole 15-mer aptamer, many near background
Modification	mean fluorescence intensity
2'F-ANA at 1 2 6 12	331 a.u.
2'F-ANA at 2 3 4 7 9 11 12 13 14	266 a.u.
2'F-ANA at 2 4 5 10 11 12 14 15	52.4 a.u.
2'F-ANA at 1 2 3 4 5 6 7 8 15	64.7 a.u.
2'F-ANA at 3 4 5 6 8 12 13 15	156 a.u.
2'F-ANA at 2 3 4 6 14	253 a.u.
2'F-ANA at 2 4 5 7 11 15	56.7 a.u.
2'F-ANA at 1 4 5 6 7 9 11 12 13	79.3 a.u.
2'F-ANA at 2 4 6 7 8 11 12 14 15	127 a.u.
2'F-ANA at 1 3 4 5 8 10 11 15	53 a.u.
2'F-ANA at 1 6 9 10 11 12	62.4 a.u.
2'F-ANA at 1 2 3 4 6 8 9 14 15	60.5 a.u.
2'F-ANA at 8 11 12 14 15	236 a.u.
2'F-ANA at 3 4 5 7 9 12 13 14 15	59.1 a.u.
2'F-ANA at 2 3 4 7 9 10 12 15	312 a.u.
2'F-ANA at 1 2 4 5 8 9 10 11 12 13 14	95.4 a.u.
2'F-ANA at 2 3 4 7 9 13	446 a.u.
2'F-ANA at 3 4 6 7 11 13 14 15	237 a.u.
2'F-ANA at 1 2 4 9 10 11 14	46.4 a.u.
2'F-ANA at 1 2 3 4 8 9 13 14 15	120 a.u.

Block 3 — method: DHFR PCA, deep sequencing; matrix: yeast; together with: (+)-ABA 17 µM; relative to: wild-type fitted maximum; direction: higher = stronger binding
Target: ABI1, truncated, D143A, DHFR fusion (Arabidopsis thaliana)
Notes: methotrexate growth selection, single substitutions
Starting sequence: PYL1, truncated, DHFR fusion (Arabidopsis thaliana); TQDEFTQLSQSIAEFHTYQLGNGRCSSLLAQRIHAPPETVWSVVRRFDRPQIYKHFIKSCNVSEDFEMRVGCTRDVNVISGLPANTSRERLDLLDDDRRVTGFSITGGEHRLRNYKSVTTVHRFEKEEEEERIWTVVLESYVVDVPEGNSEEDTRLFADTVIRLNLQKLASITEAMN; partner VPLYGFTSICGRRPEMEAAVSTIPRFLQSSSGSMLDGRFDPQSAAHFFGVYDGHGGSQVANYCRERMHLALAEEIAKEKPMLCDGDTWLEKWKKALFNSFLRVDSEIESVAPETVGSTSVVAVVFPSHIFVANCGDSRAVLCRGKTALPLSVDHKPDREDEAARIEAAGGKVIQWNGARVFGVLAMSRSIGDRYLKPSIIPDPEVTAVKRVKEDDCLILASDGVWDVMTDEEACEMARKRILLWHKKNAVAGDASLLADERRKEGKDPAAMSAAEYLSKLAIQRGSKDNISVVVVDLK
Substitution	relative binding score [%]
A13Q	80.5
L156E	61.5
Q10F	47.7
D153G	0.351
L112F	74.6
K116D	-8.08
R46V	25.8
P37K	-23.5
S80W	11.6
S9P	44.7
L169N	16.8
C72L	49.1
I162H	-11.9
T154N	-12.4
V142W	4.21
L91D	11.8

Block 4 — target: CCND3, cyclin fold, Cln2 fusion (human); method: yeast growth competition, sequencing; matrix: yeast; notes: weak parent motif; relative to: not given; direction: higher = stronger binding
Starting sequence: SAMHD1 docking peptide (human); ASKSRVQLFKDDP; partner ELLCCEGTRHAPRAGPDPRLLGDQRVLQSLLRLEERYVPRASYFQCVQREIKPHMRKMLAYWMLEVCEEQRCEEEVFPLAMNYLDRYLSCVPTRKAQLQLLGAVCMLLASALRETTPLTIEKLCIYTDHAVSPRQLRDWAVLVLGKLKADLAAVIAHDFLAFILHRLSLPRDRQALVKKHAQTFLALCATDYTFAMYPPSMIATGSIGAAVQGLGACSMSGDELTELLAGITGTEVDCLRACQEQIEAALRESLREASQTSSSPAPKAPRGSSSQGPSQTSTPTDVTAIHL
Substitution	normalised enrichment score
ASKSWVQLFKDDP [R5W]	0.276
AEKSRVQLFKDDP [S2E]	0.152
ASKDRVQLFKDDP [S4D]	-0.0346
ASKSRVNLFKDDP [Q7N]	0.0586
ASKSIVQLFKDDP [R5I]	0.255
ASKSRAQLFKDDP [V6A]	-0.0321
ASKGRVQLFKDDP [S4G]	-0.136
ASKSRVQLFKDGP [D12G]	0.171
ASKSRVQKFKDDP [L8K]	0.308
ASKSRVQLDKDDP [F9D]	0.31
ASKSRVQLFKDSP [D12S]	0.252
ASKSRVQLFKADP [D11A]	-0.154
ASKSRVMLFKDDP [Q7M]	-0.313
ASKSRVQLFKHDP [D11H]	0.255
ASKSRVPLFKDDP [Q7P]	-0.0532
AYKSRVQLFKDDP [S2Y]	0.251
ASKSRVQLVKDDP [F9V]	0.265
ASKSRVQLFHDDP [K10H]	-0.0554
ASKSRVQVFKDDP [L8V]	0.083
ASKSRVRLFKDDP [Q7R]	0.712
ASKSVVQLFKDDP [R5V]	0.211
ASKSRDQLFKDDP [V6D]	-0.262
ASKSQVQLFKDDP [R5Q]	0.13
AWKSRVQLFKDDP [S2W]	0.423
ASKSRVQLFKVDP [D11V]	0.218

Block 5 — method: Spec-seq; molecule type: double-stranded DNA, one strand shown; matrix: in vitro; concentration: not given; notes: whole probe, mean of replicates; relative to: not given; direction: lower = stronger binding; all sequences stand within: GAGTCGTCTCGTCAGCAC … CCGTAGAGCACTCAGGTC
Target: Transcription factor SOX-2, HMG box (Sox2, Mus musculus, UniProt P48432, residues 41-119)
Sequence of UniProt P48432 (41-119, looked up): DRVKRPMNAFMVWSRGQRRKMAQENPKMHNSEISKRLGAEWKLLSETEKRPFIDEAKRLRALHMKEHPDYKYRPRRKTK
Oligonucleotide	relative binding energy [ln ratio]
CATGAAA	-0.0357
CATAAAC	-0.321
CATCGAT	0.574
AGAAGTT	0.205
CATAGCG	-0.309
CATCCCC	1.36
CATTTTA	-0.258
GGCCGTT	1.19
ACGGGTT	0.871
CATGCCT	0.572
TCAAGTT	0.789
CATGCAG	0.0777
GAGTGTT	0.526
TGTGGTT	0.296
CATACTC	0.14
GGACGTT	1.57
TACAGTT	-0.107
CCCAGTT	0.651

Repeated from above (block 2):
Modification	mean fluorescence intensity
2'F-ANA at 1 2 3 4 8 9 13 14 15	120 a.u.
2'F-ANA at 2 3 4 7 9 10 12 15	312 a.u.
2'F-ANA at 3 4 5 7 9 12 13 14 15	59.1 a.u.
2'F-ANA at 1 2 3 4 6 8 9 14 15	60.5 a.u.
2'F-ANA at 2 3 4 7 9 13	446 a.u.
2'F-ANA at 1 2 6 12	331 a.u.
2'F-ANA at 1 4 5 6 7 9 11 12 13	79.3 a.u.
2'F-ANA at 3 4 6 7 11 13 14 15	237 a.u.
2'F-ANA at 1 6 9 10 11 12	62.4 a.u.
2'F-ANA at 2 3 4 7 9 11 12 13 14	266 a.u.
2'F-ANA at 1 2 4 5 8 9 10 11 12 13 14	95.4 a.u.
2'F-ANA at 8 11 12 14 15	236 a.u.
2'F-ANA at 3 4 5 6 8 12 13 15	156 a.u.
2'F-ANA at 1 2 4 9 10 11 14	46.4 a.u.
